# Measurements gathered from unrelated publications.
# ± marks the error that the study gave.
Structure (SMILES),test,test system,conditions,scale,endpoint,value
CC[C@@H](C)[C@@H](NC(=O)[C@@H](C)NC(=O)[C@@H](CCCCN)NC(=O)[C@@H](CC(C)C)NC(=O)[C@@H](C)NC(=O)[C@H](NC(=O)[C@@H](CCCCN)NC(=O)[C@@H](CC(C)C)NC(=O)[C@H](NC(=O)[C@@H](CCCCN)NC(=O)[C@@H](CCCCN)NC(=O)[C@@H](CCCCN)NC(=O)[C@@H](C)NC(=O)[C@@H](CCCCN)NC(=O)[C@@H](CO)NC(=O)[C@@H](Cc1ccccc1)NC(=O)[C@H](NC(=O)[C@@H](CCCCN)NC(=O)[C@@H](CC(C)C)NC(=O)[C@@H](Cc1ccccc1)NC(=O)[C@@H](CO)NC(=O)[C@@H](CCCCN)NC(=O)[C@@H](Cc1c[nH]c2ccccc12)NC(=O)[C@@H](CCCCN)NC(C)=O)[C@H](C)O)C(C)C)[C@H](C)O)C(=O)N[C@H](CO)C(=O)N[C@H](CCCCN)C(N)=O,RP-HPLC temperature profiling,,"pH 2, 5-80 °C, unit not given",reference: control peptide,self-association parameter,3.31
"CNC(=O)N[C@]1(C)CCC[C@@]2(C)C3CC[C@@]4(C)C[C@]3(CCC21)CC4=O (single isomer, unassigned)",,"Sprague-Dawley rat, male, plasma","intravenous, 2 mg/kg",,volume of distribution at steady state,0.63 ± 0.032 L
CC[C@H](C)[C@H](NC(=O)[C@H](N)Cc1ccc(O)cc1)C(=O)N[C@H]1CSSC[C@@H](C(=O)N(C)[C@H](C(N)=O)[C@@H](C)CC)NC(=O)[C@H](CCCNC(=N)N)NC(=O)[C@H](Cc2c[nH]cn2)NC(=O)[C@H](C)NC(=O)CN(C)C(=O)[C@H](Cc2c[nH]c3ccccc23)NC(=O)[C@H](CC(=O)O)NC(=O)[C@H](CCC(N)=O)NC(=O)[C@H](Cc2cn(C)c3ccccc23)NC(=O)[C@H](C(C)C)NC1=O,UPLC-ESI-MS,human plasma,"0.18 µg/mL, 24 h, 25 °C, bench-top after SPE",,recovery,99.8 ± 0.3%
CCCC(CCC)NC(=O)c1ccc(OC2OC(C(=O)O)C(O)C(O)C2O)c(O)c1 (stereo not drawn),,"female Sprague-Dawley rat, plasma","oral, 200 mg/kg of parent drug",,Tmax,8.3 h
COC(=O)C(c1ccccc1Cl)N1CCC(SCC(=O)c2cccc(OC)c2)C(=CC(=O)O)C1 (mixture of isomers),HPLC-MS/MS,feline citrate plasma,"100 ng/mL, 6 h, -80 °C, storage stability",,deviation from nominal,6%
C=C(c1ncc(C(=O)O)cn1)c1cc2c(cc1C)C(C)(C)CCC2(C)C,,"Sprague-Dawley rat, male","oral, 100 mg/kg, 3 h, sesame oil vehicle",,blood triglycerides,164 ± 122 mg/dL
CCC(=O)N[C@@H](C)C(=O)OCC(=O)N[C@@H](C)C(=O)O,,water,"pH 7, 65 °C",,depolymerization half-life,4.63 h
COc1ccc2cc(-c3ccc(-c4ccc(C)cn4)nc3)oc2c1,,aqueous HEPES buffer,"pH 7.4, zinc(II) complex",,fluorescence lifetime,2.42 ns
OC1(C(F)(F)F)CCN(c2nc(Nc3ccnc(C(F)(F)F)c3)nc(-c3cccc(C(F)(F)F)n3)n2)C1 (stereo not drawn),,Sprague-Dawley rat,"oral, at least 25 mg/kg, 28 days, once daily",,body weight gain,decreased
CC(C)[C@H](NC(=O)CNC(=O)[C@H](CCC(N)=O)NC(=O)[C@H](C)N)C(=O)O,,"male human, plasma","intravenous, 10 mg/kg, single dose",,clearance,950 mL/min/kg
COC(=O)c1ccc2c(c1)NC(=O)/C2=C(\Nc1ccc2c(c1)CCN2C(=O)CN1CCOCC1)c1ccccc1,,"cynomolgus monkey, plasma","intravenous, 2 mg/kg",,Vd,3.57 L/kg
NC(=S)N/N=C/c1ccccc1O,cyclic voltammetry,anhydrous DMF,"Cu2+ complex, glassy carbon electrode",,peak potential separation,0.132 mV
CC(C)[C@H](NC(=O)[C@@H]1CCCN1C(=O)[C@H](CCCNC(=N)N)NC(=O)[C@H](CS)NC(=O)[C@H](Cc1c[nH]c2ccccc12)NC(=O)[C@H](CCCNC(=N)N)NC(=O)[C@@H](Cc1ccccc1)NC(=O)[C@H](Cc1c[nH]cn1)NC(=O)[C@H](CCC(=O)O)NC(=O)[C@H](CS)NC(=O)[C@H](CS)NC(=O)[C@@H]1CC(=O)N[C@@H](CCCNC(=N)N)C(=O)NCC(=O)N[C@@H](CC(=O)O)C(=O)N[C@H](Cc2ccc(O)cc2)C(=O)N1)C(N)=O [technetium-99m labelled],,"C57 mouse, female, B16/F1 melanoma","intravenous, 0.037 MBq, 4 h",reference: tumour over blood,tumour to tissue ratio,25.2
CC[C@H](C)[C@H](NC(=O)[C@H](Cc1ccccc1)NC(=O)[C@H](CCCCN)NC(=O)[C@H](CCCNC(=N)N)NC(=O)[C@H](Cc1ccccc1)NC(=O)[C@H](Cc1ccccc1)NC(=O)[C@H](CCCCN)NC(=O)[C@H](CO)NC(=O)[C@H](CC(C)C)NC(=O)[C@H](CCCNC(=N)N)NC(=O)[C@H](CCSC)NC(=O)[C@H](C)N)C(=O)N[C@@H](CC(C)C)C(=O)N[C@@H](CCCN)C(=O)N[C@@H](CCCNC(=N)N)C(=O)N[C@@H](CCCCN)C(=O)N[C@@H](CCCCN)C(=O)O,circular dichroism,20% TFE in PBS,"200 µM, pH 7.4, 25 °C",,helicity,14.9%
N=C(N)NCCC[C@@H]1NC(=O)[C@H](Cc2c[nH]c3ccccc23)NC(=O)[C@@H](CC2CCCCC2)NC(=O)[C@@H]2CCCN2C(=O)[C@@H](NC(=O)CCc2ccccc2)CCCNC1=O,,"C57BL/6J mouse, plasma spinal cord","intraperitoneal, 1 mg/kg single dose",,MRT(0-inf),1.34 h
Cn1ccc(-c2cc(Cl)c(Cl)c3[nH]c4c(c23)CN(C(=O)CO)CC4)n1,,"male C57BL/6 mice, concanavalin A, spleen","oral, 100 mg/kg, 16 h after concanavalin A",,cGAMP concentration,7.3 µM
OCc1cn(Cc2ccc(-c3noc(-c4ccc(OCC[18F])c(C(F)(F)F)c4)n3)cc2)nn1,,"rat, bone","intravenous, 2 h",,tracer uptake,0.51 %ID/g
COc1cc(F)c(C(C)C)cc1C1=C(CN2C(=O)O[C@H](c3cc(C(F)(F)F)cc(C(F)(F)F)c3)[C@@H]2C)CC(C)(C)CC1,non-compartmental analysis,"healthy male subjects, plasma","oral, 25 mg single dose",,Vd/F per body weight,19.8 L/kg
CC(=O)N[C@@H](CC(N)=O)C(=O)NCC(=O)N[C@@H](C)C(=O)N[C@@H](C)C(N)=O,1H NMR,sodium phosphate buffer 50 mM,"pH 7.4, 37 °C",,half-life of Asn form,25.7 h
Cn1c(=O)oc2ccc(-c3ccc(CC(C#N)NC(=O)C4CNCCCO4)c(F)c3)cc21 (stereo not drawn),,human,"oral, 10 mg once daily, TEAE, multiple ascending dose",,mouth ulceration incidence,11.1%
C[C@H]1NSc2nc(=O)c3[nH]ccc3n2Cc2ccc(Cl)cc21,,"dog, both sexes, plasma",100 mg/kg,reference: dog over human 10 mg,exposure ratio,not detected
Oc1ccc2ccccc2c1/N=N/c1ccc(/N=N/c2ccccc2)cc1,,extracted rat blood QC samples,"0.5 µg/L, 2 h, room temperature, short-term stability",,measured concentration,0.503 µg/L
CC[C@H](C)[C@@H]1NC(=O)[C@H](Cc2ccccc2)NC(=O)[C@@H](NC(=O)[C@H](CCCNC(=N)N)NC(=O)[C@H](Cc2ccccc2)NC(=O)[C@H](Cc2ccccc2)NC(=O)[C@H](CCCCN)NC(=O)[C@H](CO)NC(=O)[C@H](CC(C)C)NC(=O)[C@H](CCCNC(=N)N)NC(=O)[C@H](CCSC)NC(=O)[C@H](C)N)CNC(=O)NCCC[C@@H](C(=O)N[C@@H](CCCNC(=N)N)C(=O)N[C@@H](CCCCN)C(=O)N[C@@H](CCCCN)C(=O)O)NC(=O)[C@H](CC(C)C)NC1=O,circular dichroism,20% TFE in PBS,"200 µM, pH 7.4, 25 °C",,helicity,22.1%
N#Cc1cc(C(=O)OCC[18F])c(C(F)(F)F)nc1N1CCN(C(=O)Cc2ccccc2)CC1,dynamic PET,"human, contralateral normal brain",intravenous,,peak SUV,2.19 ± 1.42
COc1cc2c(cc1OC)CN(CCCCn1ccc3cc(OCC[18F])ccc31)C2,,"male CD-1 mouse, brain","intravenous, 30 min",,tracer uptake,2.68 %ID/g
CC(C)(Sc1ccncc1-c1ccc(C#N)c2ccccc12)C(=O)OC1OC(C(=O)O)C(O)C(O)C1O (stereo not drawn),,"adult men, plasma","oral, 15 mg verinurad, mild renal impairment",reference: impaired over normal renal function,Cmax ratio,129%
CC1=CC(C)=[N+]2C1=C(CO)c1c(C)cc(C)n1[B-]2(C)C,,DMSO/MeOH 1:1,"10 min, 510 nm irradiation 2.44 J/cm2",,photostability,stable
